Experimental data from different studies.
Every numbered part comes from another study and shows a few of its results, in no order.

Set 1 — technique: RNA Bind-n-Seq; molecule type: RNA; matrix: in vitro; tested at: 365 nM; relative to: no-protein control; reading: higher = stronger binding
Target: RNA binding protein fox-1 homolog 2, RRM domain, GST-SBP tag (RBFOX2, Homo sapiens, UniProt O43251-10, residues 100-194)
Notes: natural RNA segment, single round, ends assumed
All sequences stand within: GGGAGUUCUACAGUCCGACGAUC … UGGAAUUCUCGGGUGCCAA
Construct (chain): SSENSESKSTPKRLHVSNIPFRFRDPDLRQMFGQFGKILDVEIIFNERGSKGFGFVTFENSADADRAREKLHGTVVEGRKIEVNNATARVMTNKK
| Sequence | RBNS enrichment (R) |
| --- | --- |
| AUAUCUGCUGGUUUAAAUUCUGUCAUAUUUCACUUCUAGCCUUUUAGUAUGGCAAAUCAUAUUUUACUUUUACUUAAGCAUUUGUAAUUUGGAGUAUCUGGUACUAGCUA | 0.377 |
| CAGGGCCACAGCUGCCACCUGCCAGCCUCUGGAGCCACCACCAUUUGGGUCUCCUCAGGCCCCCGGGCCCACCUGCCCUGAAGGCAGCAGCAAGUUUCUUCUGCAGCCCU | 0.267 |
| UUUUUGGACGUUGGAAGAGCUCAGAAGCCCAUCUUCUGCAGUUACCAAGGAAGAAAGAUCGUUCUGAAGUUACCCUCUGUCAUACAUUUGGUCUCUUUGACUUGGUUUCU | 0.299 |
| UCGUUCAUCUGACCACGGGAUGUGUUUCUGAAGAAAAUCUGGAUGCCUGGUGUGUUAGGAACUGAACCUGGGACCCAAAGUGACUGAGGUGGGGGAAGGGAAAAGAAGGA | 1.11 |
| AAGGUAAGGAGACAUCCUCUUCGACACCGCUGUUGACCGAGGAGCUCAGGGCCACUUUGAGUGUGAUGAGAUACCCAGGAACACGUGUGCCCACAGCUGAAGUUUUACAU | 0.288 |
| UUGCCAAGUGCCUCUGCAGACUGGCCUUCCACCCUAGGCGCGGGCAGUUGGCAGAAGAAAGGCAGGGCAGUGUGUAGUGGAUGGGCAGCCUGCUGGCAGCCUGCAUAGGC | 0.32 |
| CAGGCCCGACCUUGAUGUCCACCUCCACAGCCUGGGCUUCUGCCUGGAGCCUGGCAGCCACAGACAUCAUACACAGCCUCUGAAGCUUAUUAAAGUAUGUUCACCCACUG | 0.238 |
| AGUGAUGCUGGAAAAGUCAUAGGACUGGCAAAGCAACUGUUUAAACCCUUUGUAACCGGGGCCUUGCCCCCACCUCCUGUCUUUUCUCCUUGCCUUCCCCACUCCUGUGU | 0.338 |
| UAGUGUCAGUUAACUAUAAGGAAGUUCCGGAGAGGUAAAGCUCAGGAAAGAUGUAAUGCAAAGCUGAUUGUUUAAUGUCUUACAGAUUUACACUGUCUUUAAAAGGCCAA | 0.283 |
| UCAAAAGCUUGGCUUUAAAGUCUAAGGGAGUUUUAGAUCAAAAACUAGCUAUCACUUCCUGAGUGUCUCAUGUAGCCACUCAGGCUCCCAGGAGUUUCCUGAGGUAGGUU | 0.219 |
| GUUCUUGCGGUUUCUUCCAUUGCUUCUAGGCAGAGCCAAGGACUCAUCCUCACCAUCCAUACAUGGGAGAUAUUUAAAGUUUCUAAAGUCGAUCCCACCAGCCCUCGAUG | 0.571 |
| GCCCCCACCAAUGAGUUCUACGCGUGAAGCUUGCUUGUGGGCACUGGCUUGGACUUUAGCGGGGAGGGAAGCCAGGGGAUUUUGAAGGGUGGACAUUAGGGUAGGGUGAG | 2.26 |

Set 2 — technique: universal PBM; molecule type: double-stranded DNA, one strand shown; matrix: in vitro; tested at: not given; reading: higher = stronger binding
Target: Sal-like protein 4, full length isoform B (SALL4, Homo sapiens, UniProt Q9UJQ4-2, residues 1-616)
Notes: 8-mer, flanks averaged, mean of replicates
| Sequence | E-score |
| --- | --- |
| CCTCCGGA | -0.295 |
| AACCGTGA | -0.0254 |
| AGCCCCGG | -0.448 |
| CCACTACC | -0.094 |
| TGGAACCA | -0.0895 |
| AAAGCCCA | -0.107 |
| AAATAGAT | 0.286 |
| AGTCGTCG | -0.148 |
| CTTTTCGA | 0.00318 |
| CAAGGGGC | -0.33 |
| CGAGTAGC | -0.0969 |
| AACCGGTC | -0.108 |
| CTCTGCGA | -0.0712 |
| CTACCCAC | -0.208 |
| CTACTCAA | 0.168 |
| GAACTTTA | 0.0859 |
| TACCCGGA | -0.0284 |
| CGTTTAAA | 0.112 |
| AGCGGTGA | -0.0999 |
| CGTAGACC | -0.21 |
| ATAATCTG | 0.211 |
| CGCGAGTC | -0.208 |
| AGAGTACG | -0.103 |
| AACCTATG | 0.155 |
| GAGGAGCC | -0.232 |

Set 3 — technique: protein-binding microarray; molecule type: double-stranded DNA, one strand shown; matrix: in vitro; tested at: 250 nM; notes: 60-bp whole probe; with: salmon DNA 0.4 mg/ml; relative to: random background probes; reading: higher = stronger binding; all sequences stand within: GCCTAGCAC … GTCTTGATTCGCTTGACGCTGCTG
Target: Interferon regulatory factor 5, full length, phosphomimetic (IRF5, Homo sapiens, UniProt Q13568-2, residues 1-514, K96S/S451D/S453D/S456D/S462D)
| Sequence | log fluorescence [z-score] |
| --- | --- |
| GTTTCTCTTTCCTTCTTGATGTGCTAG | 5.3 |
| TCATGTCTCTGTCCCTGACTGTGCTAG | -0.0143 |
| TTTTTTTTTGGAATGTCTTCGTGCTAG | 1 |
| GACGGTTCCATTTTCCTGACGTGCTAG | 0.579 |
| TTAGGTTTCAGACTGGATTAGTGCTAG | 1.03 |
| CCGTGTTTCTCAACCATTTTGTGCTAG | 0.692 |
| ATTTTTTTCTAATTGAAATCGTGCTAG | 1.4 |
| GACGGTATCGACTCTCGGGACGTGCTA | 1.95 |
| GACGGTATCGGTCACGGGACGTGCTAG | 5.61 |
| TTAGGTTTCGATTTTCGGTTAGTGCTA | 9.87 |
| GACGATTTCGGGTTTCGCGACGTGCTA | 3.58 |
| GACTATTTCAGTTTCGAGACGTGCTAG | 7.1 |
| GACGGACTGGGGTATCAGGACGTGCTA | -0.393 |
| GACGGTATGCTTCTCCTGACGTGCTAG | -0.066 |
| GACGGTTTGGGACTGGGGACGTGCTAG | -0.166 |
| ACTTCTCCATTTTTCTAGTCGTGCTAG | 0.747 |
| GACGGTATCAGTTTCGAGACGTGCTAG | 6.57 |
| GACGGTTTCCTTTTCCTTACGTGCTAG | 1.27 |
| TCATGTCCCCCTTTTATACTGTGCTAG | 0.008 |
| TTAGGGCTCCTTTTCCTTTAGTGCTAG | -0.215 |
| CCCTGGCTCCCTATAAAAGGGTGCTAG | -0.522 |
| GACGATCTTAGTTTCGAGACGTGCTAG | 5.6 |
| TTCGATTTCGGGTATCGATTAGTGCTA | 7.98 |
| TTAGGTCGCGGACTGGGTTAGTGCTAG | -0.468 |
| TTAGAACTGCTACTGCTTTAGTGCTAG | -0.108 |

Set 4 — technique: protein binding microarray; molecule type: double-stranded DNA, one strand shown; matrix: in vitro; tested at: not given; relative to: not given; reading: higher = stronger binding
Target: Histone acetyltransferase KAT6A, both winged helices, GST fusion (KAT6A, Homo sapiens, UniProt Q92794, residues 1-181)
Notes: 8-mer, flanks averaged, mean of 2 arrays, mostly near background
Target sequence (chain): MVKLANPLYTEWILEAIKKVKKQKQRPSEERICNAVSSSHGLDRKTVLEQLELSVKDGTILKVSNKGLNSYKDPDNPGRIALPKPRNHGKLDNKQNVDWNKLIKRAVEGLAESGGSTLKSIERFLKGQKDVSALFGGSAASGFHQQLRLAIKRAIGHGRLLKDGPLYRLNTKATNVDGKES
| Sequence | E-score |
| --- | --- |
| CGGTAGAG | 0.148 |
| CAAACGAC | -0.00441 |
| AAACATCG | -0.114 |
| CTCAAAGC | -0.00259 |
| CTGAATGA | -0.0936 |
| TCAATCAA | 0.115 |
| ATTTTGAG | -0.104 |
| CAGCGTGA | -0.00679 |
| AAACTCGA | -0.196 |
| AGGCCTAG | -0.176 |
| AGTCCCGG | 0.136 |
| TGTTTCAA | -0.0577 |
| CGCATGGA | 0.0151 |
| CTCAACGA | -0.0534 |
| CTCCATCA | -0.112 |
| TGATTTAA | -0.0383 |
| TCGTAGCA | -0.0818 |
| AGGGTCGA | -0.085 |
| CCTCGGAA | 0.115 |
| GCTGACCC | 0.0564 |

Set 5 — technique: competition protein-binding microarray; molecule type: double-stranded DNA, one strand shown; matrix: in vitro; tested at: 2 µM; with: Pho4 competitor, 0.05 µM; reading: higher = stronger binding; all sequences stand within: … GTCTTGATTCGCTTGACGCTGCTG
Target: Centromere-binding protein 1, full length, His-tagged (CBF1, Saccharomyces cerevisiae, UniProt P17106, residues 1-351)
Sequence of UniProt P17106 (whole entry, looked up): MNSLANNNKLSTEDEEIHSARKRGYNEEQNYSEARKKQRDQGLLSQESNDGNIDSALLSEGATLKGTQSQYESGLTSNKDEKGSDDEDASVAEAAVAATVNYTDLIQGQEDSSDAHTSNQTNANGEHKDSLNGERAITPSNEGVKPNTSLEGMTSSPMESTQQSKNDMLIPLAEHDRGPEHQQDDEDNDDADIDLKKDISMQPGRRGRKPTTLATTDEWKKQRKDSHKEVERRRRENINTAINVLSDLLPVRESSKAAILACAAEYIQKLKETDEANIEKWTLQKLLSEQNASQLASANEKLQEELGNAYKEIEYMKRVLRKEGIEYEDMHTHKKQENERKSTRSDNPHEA
Notes: whole 60-bp probe, lowest competitor level
| Sequence | fluorescence intensity |
| --- | --- |
| CGTCCTAGTGATTGGCTGGTGGGTGCCATGAGGAAG | 75.1 a.u. |
| CTTCAGTTTTTTCACCACGTGAAGAGAATATGGATA | 2270 a.u. |
| TAATTTTCAAACGACCACGCACCGCGAGAGAAAAGA | 82.5 a.u. |
| GACATACAGGAGTGCCACATGCGAAAGCGGAGTGGG | 90.3 a.u. |
| AGACCAGATGGGGTCCACGTTATCAACGTTGGTAAG | 92.8 a.u. |
| CGGGGTTAAGTTTGTGATGTGGGTGGCTTGCAGCAG | 84.6 a.u. |
| GTCTTGTCTCATTGTCACCCAACTTTCCCCACTTCA | 89.1 a.u. |
| GAAACCTTTTCCTCTTGCTCACCAGCTTCATTCTCG | 56 a.u. |
| ACCGGTGCAACTTTCCACATGCACTCTCATTGAGAC | 94.3 a.u. |
| CCCGCCCCGCTCGGTCACGTGAGCCTGGCTCTCACC | 9420 a.u. |
| CTTTCCCGATCTTTTCACGTGTAGTTAGCACATTTG | 680 a.u. |
| ACAACTGCGGGGACGCATGTGCTCTAAAGAAAGCAG | 128 a.u. |
| TTCAAACTAAGTTGACCCGTGAATTGGAAAAGAAAT | 83.7 a.u. |
| TGGTCTTGGCCTTGACCGGTGATACGCGTCTTGTGC | 54.9 a.u. |
| CGTCCTAGTGATTGTGACGTGGGTGCCATGAGGAAG | 80.6 a.u. |
| AGAGTGGTGCTGAAGCTCGTGACGGGAACAAGATCA | 276 a.u. |
| AACAATAGAGAATCGCACGTGGCAATATTCGCGTTA | 1140 a.u. |

A few entries again (set 4):
| Sequence | E-score |
| --- | --- |
| CAAACGAC | -0.00441 |
| AAACATCG | -0.114 |
| CTCAAAGC | -0.00259 |
| CTGAATGA | -0.0936 |
| TCAATCAA | 0.115 |
| ATTTTGAG | -0.104 |
| CAGCGTGA | -0.00679 |
| AAACTCGA | -0.196 |
| AGGCCTAG | -0.176 |
